Results gathered from unrelated publications.
Each line is one published result; not all experiments were run side by side. Values joined by “and” are separate records of one study, mostly repeats; a detail may differ. Numbers after ± are the reported error.
Organism: SARS-CoV-2

CN1C(CC(=O)c2ccccc2)CCCC1CC(O)c1ccccc1 (stereo not shown)  plaque reduction (Vero; 83 µM): 81 to 88%
CC(C)(C)NC(=O)[C@@H](c1cccnc1)N(C(=O)c1ccco1)c1ccc(C(C)(C)C)cc1  Ct value (RT-qPCR, measured: viral RNA; Vero; 1 µM; higher means less virus): 23.4 cycles
Cc1oc2nc1C(=O)N[C@](C)(C(=O)OC(C)C)c1nc(c(C)o1)C(=O)N[C@](C)(C(=O)OC(C)C)c1nc(c(C)o1)C(=O)N[C@]2(C)C(=O)OC(C)C  inhibition (viral adsorption; Vero E6, NRC-03-nhCoV; 10 µM): 12%
O=C1C(O)=C(Nc2ccc(F)cc2)C(=O)c2ccccc21  selectivity index (Calu-3 and HepG2; reference: HepG2 CC50 over antiviral EC50): 110 ± 30
CCCC/C=C/C(=O)N[C@@H](Cc1csc2ccccc12)C(=O)N[C@H]1COC(=O)[C@@H]2C[C@@H](C)CN2C(=O)[C@H](C)NC(=O)[C@@H]2CCCCN2C(=O)[C@@H]2CCCN2C1=O  viral RNA release (Huh-7; concentration not given, 6 h, unit not given; reference: DMSO): 0.218 and 0.328 and 0.321
COC(=O)CCC(C)C1CCC2C3C(O)CC4CC(OC(=O)CCC(=O)OC5OC6OC7(C)CCC8C(C)CCC(C5C)C68OO7)CCC4(C)C3CCC12C (stereo not shown)  viral load reduction (Vero C1008; concentration not given; reference: untreated): < 1 log10
Cc1ccc(N2CC(N3CCC(C)(O)CC3)C2)cc1C(=O)NC1(c2ccc3c4c(cccc24)C(=O)N3C)CC1  inhibition (viral replication; Vero C1008, wild type; 0.05144 µM): 70%
O=P(O)(O)Oc1c2c(c(OP(=O)(O)O)c3c1C1CC3c3cc4c(cc31)C1CC4c3ccccc31)C1CC2c2cc3c(cc21)C1CC3c2ccccc21  IC50 (pseudoparticle entry; Caco-2): 35.5 µM
Cc1oc2nc1C(=O)N[C@](C)(C(=O)NCCc1ccccc1)c1nc(c(C)o1)C(=O)N[C@](C)(C(=O)NCCc1ccccc1)c1nc(c(C)o1)C(=O)N[C@]2(C)C(=O)NCCc1ccccc1  inhibition (viral replication; Vero E6, NRC-03-nhCoV; 10 µM): 19%
C#CCCOP(=O)(O)Oc1c2c(c(OP(=O)(O)OCCC#C)c3c1C1CC3c3cc4c(cc31)C1CC4c3ccccc31)C1CC2c2cc3c(cc21)C1CC3c2ccccc21  IC50 (spike pseudoparticle entry; Caco-2): 11 µM
Oc1ccc(Br)cc1-c1nc2cc(C(F)(F)F)ccc2s1  genomic RNA level (RT-qPCR, measured: Orf1a; Huh-7; 30 µM, 48 h, unit not given; reference: DMSO): 0.221 and 0.176
O=C(NC1CCN(c2ncnc3[nH]cnc23)CC1)c1cccc(NS(=O)(=O)c2ccc(C(F)(F)F)cc2)c1  remaining activity (replicon RdRp activity; HeLa; 10 µM): 2.68%
CCn1ccc(-c2cc(-c3cnn(C)c3)cc([C@@H](C)NC(=O)c3cc(OCCN(C)C)ccc3C)c2)n1  EC90 (viral replication; icSARS-CoV-2-nLuc reporter): 1.59 µM
Cc1ccc(N2CCN(C)CC2)cc1C(=O)NC1(c2ccc3c4c(cccc24)CC3)CC1  inhibition (viral replication; Vero C1008, Omicron BA.5; 0.1543 µM): 0%
CC(C)CC(C(=O)N1CC2(CC1C#N)C(=O)Nc1ccccc12)N(C)C(=O)c1cc2c(F)cc(F)c(F)c2[nH]1 (stereo not shown)  inhibition (viral replication; Vero E6; 1 µM): 95.8% and 96.4% and 100% and 97.3%
Clc1ccc(CN2CCCC3=CC4CC(CN5CCCCC45)C32)c(Cl)c1 (stereo not shown)  antiviral activity (viral replication; concentration not given): inactive
Cc1oc2nc1C(=O)N[C@](C)(C(=O)O)c1nc(c(C)o1)C(=O)N[C@](C)(C(=O)O)c1nc(c(C)o1)C(=O)N[C@]2(C)C(=O)O  inhibition (viral adsorption; Vero E6, NRC-03-nhCoV; 20 µM): 66%
C=CCCOP(=O)(O)Oc1c2c(c(OP(=O)(O)OCCC=C)c3c1C1CC3c3cc4c(cc31)C1CC4c3ccccc31)C1CC2c2cc3c(cc21)C1CC3c2ccccc21  IC50 (spike pseudoparticle entry; Caco-2): 8.8 µM
Cc1ccc(N2CC3CC(C2)N3)cc1C(=O)NC1(c2ccc3c4c(cccc24)C(=O)N3C)CC1  inhibition (viral replication; Vero C1008, XBB.1; 0.05144 µM): 60%
C[C@@H]1O[C@@H](n2c3ccccc3c3c4c(c5c6ccccc6[nH]c5c32)CNC4=O)C[C@@H](N)[C@H]1O  EC50 (viral replication, dsRNA staining; Calu-3, Delta B.1.617.2): 1 µM
CC(C)C(=O)OC[C@H]1O[C@@](C#N)(n2ccc(N)nc2=O)[C@H](O)[C@@H]1O  EC90 (viral replication, qRT-PCR of viral RNA; Calu-3, Washington): 8.3 ± 1.7 µM
Cc1ccc(N2CC(N3CCC(C)(O)CC3)C2)cc1C(=O)NC1(c2ccc3c4c(cccc24)CC3)CC1  inhibition (viral replication; Vero C1008, XBB.1; 0.05144 µM): 15%

A few entries again:
COC(=O)CCC(C)C1CCC2C3C(O)CC4CC(OC(=O)CCC(=O)OC5OC6OC7(C)CCC8C(C)CCC(C5C)C68OO7)CCC4(C)C3CCC12C (stereo not shown)  viral load reduction (Vero C1008; concentration not given; reference: untreated): < 1 log10
CC(C)C(=O)OC[C@H]1O[C@@](C#N)(n2ccc(N)nc2=O)[C@H](O)[C@@H]1O  EC90 (viral replication, qRT-PCR of viral RNA; Calu-3, Washington): 8.3 ± 1.7 µM
CN1C(CC(=O)c2ccccc2)CCCC1CC(O)c1ccccc1 (stereo not shown)  plaque reduction (Vero; 83 µM): 81 to 88%
